# Experimental data pooled from the literature.
# A part holds a random share of what one study measured.
# UniProt Q8NE63, sequence (whole entry, looked up): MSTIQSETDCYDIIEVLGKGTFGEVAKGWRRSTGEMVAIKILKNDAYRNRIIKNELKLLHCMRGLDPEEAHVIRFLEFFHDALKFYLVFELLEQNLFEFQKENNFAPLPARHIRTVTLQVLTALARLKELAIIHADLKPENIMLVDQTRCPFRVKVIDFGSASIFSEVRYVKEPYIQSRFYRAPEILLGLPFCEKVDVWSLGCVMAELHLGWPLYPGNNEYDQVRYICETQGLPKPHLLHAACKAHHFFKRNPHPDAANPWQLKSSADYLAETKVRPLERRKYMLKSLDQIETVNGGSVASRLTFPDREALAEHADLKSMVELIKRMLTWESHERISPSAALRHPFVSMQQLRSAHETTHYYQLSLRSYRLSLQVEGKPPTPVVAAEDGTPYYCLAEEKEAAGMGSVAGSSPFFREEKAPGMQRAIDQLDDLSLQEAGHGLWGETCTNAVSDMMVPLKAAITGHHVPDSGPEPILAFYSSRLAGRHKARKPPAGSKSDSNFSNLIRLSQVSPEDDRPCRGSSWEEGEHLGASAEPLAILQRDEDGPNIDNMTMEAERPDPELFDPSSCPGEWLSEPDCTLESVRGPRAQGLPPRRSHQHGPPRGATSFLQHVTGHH
# UniProt P14616, sequence (whole entry, looked up): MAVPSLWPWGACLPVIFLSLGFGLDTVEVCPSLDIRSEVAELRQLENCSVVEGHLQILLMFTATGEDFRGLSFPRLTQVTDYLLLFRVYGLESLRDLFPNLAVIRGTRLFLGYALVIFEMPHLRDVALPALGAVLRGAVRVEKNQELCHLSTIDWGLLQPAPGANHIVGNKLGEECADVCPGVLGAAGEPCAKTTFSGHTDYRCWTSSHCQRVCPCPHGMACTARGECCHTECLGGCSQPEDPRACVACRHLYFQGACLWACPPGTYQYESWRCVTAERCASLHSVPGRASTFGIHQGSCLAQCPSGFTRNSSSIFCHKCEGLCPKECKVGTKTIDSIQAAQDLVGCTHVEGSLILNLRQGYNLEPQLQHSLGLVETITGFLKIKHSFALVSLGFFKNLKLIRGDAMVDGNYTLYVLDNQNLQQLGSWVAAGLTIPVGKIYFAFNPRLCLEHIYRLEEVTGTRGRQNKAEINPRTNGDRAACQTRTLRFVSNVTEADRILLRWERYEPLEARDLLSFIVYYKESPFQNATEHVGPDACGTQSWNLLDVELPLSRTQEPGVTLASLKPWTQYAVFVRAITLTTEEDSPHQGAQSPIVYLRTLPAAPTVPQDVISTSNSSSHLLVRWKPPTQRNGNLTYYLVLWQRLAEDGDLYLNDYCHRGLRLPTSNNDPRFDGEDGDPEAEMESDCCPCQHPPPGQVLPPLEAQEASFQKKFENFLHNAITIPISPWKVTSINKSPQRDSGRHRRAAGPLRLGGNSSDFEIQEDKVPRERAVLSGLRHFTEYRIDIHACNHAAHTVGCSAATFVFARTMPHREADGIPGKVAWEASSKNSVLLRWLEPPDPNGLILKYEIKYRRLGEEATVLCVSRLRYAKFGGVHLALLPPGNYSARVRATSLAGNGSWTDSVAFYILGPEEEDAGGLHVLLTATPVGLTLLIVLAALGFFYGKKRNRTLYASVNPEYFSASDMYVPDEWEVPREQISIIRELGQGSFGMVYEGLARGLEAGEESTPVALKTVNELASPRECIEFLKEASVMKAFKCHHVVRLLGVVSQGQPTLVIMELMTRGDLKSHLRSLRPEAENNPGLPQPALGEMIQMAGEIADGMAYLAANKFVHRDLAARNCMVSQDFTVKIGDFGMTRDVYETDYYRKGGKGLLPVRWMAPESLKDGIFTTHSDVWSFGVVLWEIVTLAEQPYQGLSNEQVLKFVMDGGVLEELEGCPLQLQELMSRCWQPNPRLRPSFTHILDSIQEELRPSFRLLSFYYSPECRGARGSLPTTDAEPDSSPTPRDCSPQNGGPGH
# UniProt P51451, sequence (whole entry, looked up): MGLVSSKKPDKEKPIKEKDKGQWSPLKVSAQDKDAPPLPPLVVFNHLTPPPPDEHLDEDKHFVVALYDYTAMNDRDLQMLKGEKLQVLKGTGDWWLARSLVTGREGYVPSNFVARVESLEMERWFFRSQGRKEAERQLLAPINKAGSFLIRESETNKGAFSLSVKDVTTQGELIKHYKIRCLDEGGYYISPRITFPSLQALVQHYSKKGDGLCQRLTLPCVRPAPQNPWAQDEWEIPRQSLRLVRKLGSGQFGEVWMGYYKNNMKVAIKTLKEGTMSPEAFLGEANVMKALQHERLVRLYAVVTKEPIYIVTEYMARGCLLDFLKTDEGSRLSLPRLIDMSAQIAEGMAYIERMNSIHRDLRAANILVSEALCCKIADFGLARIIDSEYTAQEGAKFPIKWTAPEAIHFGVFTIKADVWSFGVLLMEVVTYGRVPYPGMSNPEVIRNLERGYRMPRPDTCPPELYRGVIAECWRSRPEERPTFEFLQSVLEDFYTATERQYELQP
# UniProt Q00534, sequence (whole entry, looked up): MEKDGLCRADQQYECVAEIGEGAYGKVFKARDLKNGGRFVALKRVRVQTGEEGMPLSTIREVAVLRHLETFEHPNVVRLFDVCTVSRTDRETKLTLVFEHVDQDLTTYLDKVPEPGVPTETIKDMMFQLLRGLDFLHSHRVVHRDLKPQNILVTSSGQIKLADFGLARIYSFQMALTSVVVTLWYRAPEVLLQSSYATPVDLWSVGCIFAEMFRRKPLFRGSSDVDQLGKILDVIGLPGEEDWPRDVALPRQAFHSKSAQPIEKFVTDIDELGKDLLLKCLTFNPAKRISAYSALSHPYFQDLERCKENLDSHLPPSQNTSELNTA
# UniProt Q96GD4, sequence (whole entry, looked up): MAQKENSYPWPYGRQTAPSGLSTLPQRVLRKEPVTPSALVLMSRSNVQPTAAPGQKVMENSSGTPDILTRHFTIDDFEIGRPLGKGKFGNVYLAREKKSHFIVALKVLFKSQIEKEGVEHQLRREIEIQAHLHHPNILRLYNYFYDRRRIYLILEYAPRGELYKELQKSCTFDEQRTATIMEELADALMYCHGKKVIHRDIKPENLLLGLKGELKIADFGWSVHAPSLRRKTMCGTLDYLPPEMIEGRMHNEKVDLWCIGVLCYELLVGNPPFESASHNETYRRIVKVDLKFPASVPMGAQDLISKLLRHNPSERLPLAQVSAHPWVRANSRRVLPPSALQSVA
# UniProt P53778, sequence (whole entry, looked up): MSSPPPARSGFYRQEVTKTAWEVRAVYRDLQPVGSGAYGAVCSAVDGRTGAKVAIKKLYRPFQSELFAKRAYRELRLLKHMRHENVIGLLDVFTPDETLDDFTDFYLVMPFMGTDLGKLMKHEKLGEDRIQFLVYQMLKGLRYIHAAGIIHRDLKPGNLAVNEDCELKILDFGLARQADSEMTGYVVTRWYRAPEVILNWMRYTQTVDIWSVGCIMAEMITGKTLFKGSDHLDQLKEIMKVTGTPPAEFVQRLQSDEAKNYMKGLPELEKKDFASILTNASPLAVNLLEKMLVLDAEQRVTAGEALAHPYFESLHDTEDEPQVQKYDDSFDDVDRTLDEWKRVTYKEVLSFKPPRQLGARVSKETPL
# UniProt P68400, sequence (whole entry, looked up): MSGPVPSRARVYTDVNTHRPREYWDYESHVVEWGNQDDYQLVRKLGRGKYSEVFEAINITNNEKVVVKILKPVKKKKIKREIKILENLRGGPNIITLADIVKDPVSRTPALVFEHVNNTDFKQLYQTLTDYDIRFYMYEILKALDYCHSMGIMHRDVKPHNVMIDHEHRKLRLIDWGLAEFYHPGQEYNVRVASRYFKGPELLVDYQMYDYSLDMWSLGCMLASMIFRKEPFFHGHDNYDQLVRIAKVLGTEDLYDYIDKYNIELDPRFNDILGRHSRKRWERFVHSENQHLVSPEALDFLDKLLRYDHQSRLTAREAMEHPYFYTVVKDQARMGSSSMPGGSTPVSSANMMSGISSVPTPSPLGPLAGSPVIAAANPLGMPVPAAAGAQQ
# UniProt Q9UK32, sequence (whole entry, looked up): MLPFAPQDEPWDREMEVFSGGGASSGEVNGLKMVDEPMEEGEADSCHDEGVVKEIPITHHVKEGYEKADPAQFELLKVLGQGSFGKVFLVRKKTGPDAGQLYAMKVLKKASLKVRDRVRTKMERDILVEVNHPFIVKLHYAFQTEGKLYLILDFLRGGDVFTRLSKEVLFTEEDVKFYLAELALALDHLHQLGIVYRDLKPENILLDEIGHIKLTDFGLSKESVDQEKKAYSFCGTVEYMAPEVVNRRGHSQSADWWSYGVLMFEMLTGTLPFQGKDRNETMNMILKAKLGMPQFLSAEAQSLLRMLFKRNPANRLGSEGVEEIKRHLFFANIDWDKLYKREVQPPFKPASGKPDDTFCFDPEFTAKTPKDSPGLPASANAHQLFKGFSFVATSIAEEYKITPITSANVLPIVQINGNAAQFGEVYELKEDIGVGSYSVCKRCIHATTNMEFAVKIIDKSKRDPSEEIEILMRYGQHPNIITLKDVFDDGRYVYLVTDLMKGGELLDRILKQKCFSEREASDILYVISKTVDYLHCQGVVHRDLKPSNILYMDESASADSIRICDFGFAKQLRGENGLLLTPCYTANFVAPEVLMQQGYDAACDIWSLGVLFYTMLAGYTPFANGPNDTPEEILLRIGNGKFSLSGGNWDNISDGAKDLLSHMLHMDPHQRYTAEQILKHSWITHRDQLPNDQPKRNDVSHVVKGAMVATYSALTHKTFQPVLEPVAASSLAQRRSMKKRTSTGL

# Series 1
# Target: Sal-like protein 4, full length isoform B (SALL4, Homo sapiens, UniProt Q9UJQ4-2, residues 1-616)
# Technique: universal PBM
# Form: double-stranded DNA, one strand shown
# Sample: in vitro
# Concentration: not given
# Notes: 8-mer, flanks averaged, mean of replicates
# Reading: higher = stronger binding
# Construct (chain): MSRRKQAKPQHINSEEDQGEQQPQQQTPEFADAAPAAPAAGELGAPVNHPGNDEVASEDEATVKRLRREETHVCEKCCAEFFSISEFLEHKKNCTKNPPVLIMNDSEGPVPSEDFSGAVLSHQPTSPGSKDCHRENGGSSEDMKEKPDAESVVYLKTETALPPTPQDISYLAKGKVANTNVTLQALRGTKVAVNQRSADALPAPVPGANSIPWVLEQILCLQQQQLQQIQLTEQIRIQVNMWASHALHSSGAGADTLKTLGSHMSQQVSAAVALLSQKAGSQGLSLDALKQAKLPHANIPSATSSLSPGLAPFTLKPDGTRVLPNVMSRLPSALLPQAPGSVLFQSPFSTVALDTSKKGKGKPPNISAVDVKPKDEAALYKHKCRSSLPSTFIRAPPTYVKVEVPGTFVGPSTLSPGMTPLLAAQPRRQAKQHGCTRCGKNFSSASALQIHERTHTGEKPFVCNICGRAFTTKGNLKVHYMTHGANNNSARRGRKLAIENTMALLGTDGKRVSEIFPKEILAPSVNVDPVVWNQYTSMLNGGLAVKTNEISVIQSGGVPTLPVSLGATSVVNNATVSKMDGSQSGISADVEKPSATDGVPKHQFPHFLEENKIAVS
Oligonucleotide,E-score
TACTAAAA,0.233
CAATAAGA,0.249
CCCTTTCG,0.0805
CGGGAAGC,-0.178
GGGTTAAC,-0.0934
CAGAGTCA,-0.157
ATACACAA,0.323
GAGTCTCA,-0.144

# Series 2
# Structure (SMILES): CS(=O)(=O)N1CCCC(NC(=O)[C@H](CCC2CCCCC2)NC(=O)c2ccc(CNC(=O)c3cnc4ccccn34)cc2)C1 (stereo partly shown)
# Effect on: cell-free assay
# Technique: competition with immobilised ligand
# Concentration: 0.1 µM
target,remaining binding
"MAPK12 (Homo sapiens, UniProt P53778)",100%
"SRC (Homo sapiens, UniProt P12931)",100%
"NEK1 (Homo sapiens, UniProt Q96PY6)",68%
"NEK5 (Homo sapiens, UniProt Q6P3R8)",89%
"PIP4K2C (Homo sapiens, UniProt Q8TBX8)",100%
"MAP3K3 (Homo sapiens, UniProt Q99759)",100%
"CSNK2A1 (Homo sapiens, UniProt P68400)",100%
"SIK2 (Homo sapiens, UniProt Q9H0K1)",100%
"RET (Homo sapiens, UniProt P07949, V804M)",100%
"INSRR (Homo sapiens, UniProt P14616)",100%
"Aurora kinase B (AURKB, Homo sapiens, UniProt Q96GD4)",95%

# Series 3
# Target: Eukaryotic initiation factor 4A-I (EIF4A1, Homo sapiens, UniProt P60842, residues 1-406, full length assumed)
# UniProt P60842, sequence (whole entry, looked up): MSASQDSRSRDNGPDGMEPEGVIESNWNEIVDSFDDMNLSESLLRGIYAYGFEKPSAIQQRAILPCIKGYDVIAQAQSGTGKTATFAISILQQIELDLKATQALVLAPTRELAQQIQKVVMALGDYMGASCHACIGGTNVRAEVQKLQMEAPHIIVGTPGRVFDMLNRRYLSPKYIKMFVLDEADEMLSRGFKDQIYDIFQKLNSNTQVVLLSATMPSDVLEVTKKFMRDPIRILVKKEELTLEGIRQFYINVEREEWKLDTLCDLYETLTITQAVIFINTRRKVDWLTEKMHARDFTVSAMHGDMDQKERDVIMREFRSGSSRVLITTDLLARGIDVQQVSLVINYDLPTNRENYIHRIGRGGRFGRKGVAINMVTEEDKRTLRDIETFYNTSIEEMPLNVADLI
# Technique: RNA Bind-n-Seq
# Form: RNA
# Sample: in vitro
# Concentration: 90 pmol
# Notes: 4-mer, random 30-nt RNA, single round
# With: 3 µM iPr-DMDA-PatA, 2 mM ADP, 2 mM phosphate
# Baseline: input library
# Reading: higher = stronger binding
Oligonucleotide,4-mer enrichment
UCUG,0.917 fold
AGAC,1.3 fold
AGCU,0.966 fold
GUUC,0.922 fold
UUUU,1.16 fold
AACU,1.25 fold

# Series 4
# SMILES: CN1CCN(c2ccc3nc(-c4c(N)c5c(F)cccc5[nH]c4=O)[nH]c3c2)CC1
# Effect on: enzyme activity
# Action: inhibitor
# Concentration: 0.5 µM
# Baseline: control
target,remaining activity [%]
"RPS6KA5 (Homo sapiens, UniProt O75582)",81.1
"SRMS (Homo sapiens, UniProt Q9H3Y6)",94.4
"PHKG1 (Homo sapiens, UniProt Q16816)",30.4
"STK16 (Homo sapiens, UniProt O75716)",46.3
"RPS6KA6 (Homo sapiens, UniProt Q9UK32)",16.1
"DYRK3 (Homo sapiens, UniProt O43781)",103
"MAPKAPK3 (Homo sapiens, UniProt Q16644)",99.3
"HIPK4 (Homo sapiens, UniProt Q8NE63)",96.3
"Cyclin-dependent kinase 6, with cyclin D3 (CDK6, Homo sapiens, UniProt Q00534)",31.9
"PDPK1 (Homo sapiens, UniProt O15530)",88
"EPHB4 (Homo sapiens, UniProt P54760)",73.5
"PRKACG (Homo sapiens, UniProt P22612)",119
"BLK (Homo sapiens, UniProt P51451)",12.3
"MAP4K4 (Homo sapiens, UniProt O95819)",2.96
"WNK3 (Homo sapiens, UniProt Q9BYP7)",96.1

# For quick reference, copied from above (series 4):
target,remaining activity [%]
"RPS6KA5 (Homo sapiens, UniProt O75582)",81.1
"HIPK4 (Homo sapiens, UniProt Q8NE63)",96.3
"BLK (Homo sapiens, UniProt P51451)",12.3
"MAP4K4 (Homo sapiens, UniProt O95819)",2.96
"WNK3 (Homo sapiens, UniProt Q9BYP7)",96.1
